Measured values from different studies.
Several values in a cell are separate wells, animals, samples, runs or records. ± gives the spread as reported.

`Cl.[2H]C([2H])([2H])CC(=O)c1cnc(NC(=O)C2CC2)cc1Nc1cccc(-c2ncn(C([2H])([2H])[2H])n2)c1OC` gave a half-life of 7.41 h (geometric mean; human; oral, 10 mg once daily, day 1, fasted, liquid, multiple dose).
`CNCc1ccc(-c2[nH]c3cc(F)cc4c3c2CCNC4=O)cc1`: “patients with adverse event” 0% (item: Constipation; human patients; oral, 600 mg twice daily, grade 3).
Under “Cmax geometric mean”, `C[C@@H](Nc1cc(F)cc(F)c1)c1cc(C(=O)N(C)C)cc2c(=O)cc(N3CCOCC3)oc12` is recorded as 153 ng/mL (human, plasma; oral, 30 mg, day 1 single dose).
For `CC(C)(C(=O)N1CCOc2c(C#N)cncc2C1)C(F)F`, “subjects with TEAE” read 0% (item: vessel puncture site pain; healthy humans, both sexes; oral, 10 mg single dose).
`COc1ccc2[nH]c([S+]([O-])Cc3ncc(C)c(OC)c3C)nc2c1` (centres unmarked) gave a Cmax of 475 ± 15.8 ng/mL (healthy Chinese volunteers, plasma; oral, 20 mg, enteric-coated tablets, CYP2C19 rapid metabolizers).
The intact fraction of `C[C@@H]1NC(=O)[C@H](CCCCNC(=O)CO/N=C/C(=O)NCCCC[C@@H]2NC(=O)[C@@H](Cc3ccccc3)NC(=O)[C@H](CC(=O)O)NC(=O)CNC(=O)[C@H](CCCNC(=N)N)NC2=O)NC(=O)CNC(=O)[C@@H]2CCCN2C(=O)[C@H](CCCCNC(=O)CO/N=C/C(=O)NCCCC[C@@H]2NC(=O)[C@@H](Cc3ccccc3)NC(=O)[C@H](CC(=O)O)NC(=O)CNC(=O)[C@H](CCCNC(=N)N)NC2=O)NC(=O)[C@H](CCCCNC(=O)CN2CCCNCCNCCCNCC2)NC(=O)[C@H](CCCCNC(=O)CO/N=C/C(=O)NCCCC[C@@H]2NC(=O)[C@@H](Cc3ccccc3)NC(=O)[C@H](CC(=O)O)NC(=O)CNC(=O)[C@H](CCCNC(=N)N)NC2=O)NC(=O)CNC(=O)[C@@H]2CCCN2C(=O)[C@H](CCCCNC(=O)CO/N=C/C(=O)NCCCC[C@@H]2NC(=O)[C@@H](Cc3ccccc3)NC(=O)[C@H](CC(=O)O)NC(=O)CNC(=O)[C@H](CCCNC(=N)N)NC2=O)NC1=O` [copper-64 labelled] is reported as 100% (RP-HPLC; radiolabelling buffer; 24 h, 37 °C).
Under “subjects with grade 1 TEAE”, `Cc1cc(-c2nccc3c2ccn3CC(=O)Nc2ccc(-c3cnccn3)cn2)ccn1` is recorded as 33.3% (human; SAD part, single 7 mg dose).
Under “grade ≥2 event rate”, `O=C(Nc1ccc(OC(F)(F)Cl)cc1)c1cnc(N2CC[C@@H](O)C2)c(-c2ccn[nH]2)c1` is recorded as 0.3% (per laboratory record, item: AST increase; human patients; oral, dose not given, dose-finding study).
For `CCOC(=O)N1C[C@@H](C2CCCC2)N[C@@H](c2cccc(Br)c2)C1`, the logD was > 4.7 (shake-flask, 1-octanol/buffer; pH 7.4).
`COc1cc(Nc2ncc3c(n2)-c2ccc(Cl)cc2C(c2c(F)cccc2OC)=NC3)ccc1C(=O)O`: “decreased lymphocyte count incidence” 38% (patients; oral, dose not given, grade 3, any attribution, together with: pembrolizumab).
`O=C(O)CCCOc1ccc([18F])cc1-c1cc(-c2ccccc2C(F)(F)F)n(-c2ccccc2)n1` has a radioactivity uptake of 0.38 ± 0.1 SUV (gamma counting; male ddY mice, lung; intravenous, 2.1 MBq, 30 min).
`C=CC(=O)Nc1cc(Nc2nccc(-c3cn(C)c4ccccc34)n2)c(OC)cc1N(C)CCN(C)C` gave a recovery of 82.9% (storage stability; human dried blood spot; 10 d, -80 °C, LLOQ level).
`C=CC(=O)N1CCC[C@@H](n2nc(-c3ccc(Oc4ccccc4)cc3)c3c(N)ncnc32)C1` — result for “cysteine adduct formation”: 96% (PBS; 100 µM, 23 h, pH 8, 37 °C, together with: cysteine 10 mM).
`COc1cc2c3c(n(CCCN4CCOCC4)c(=O)c2cc1OC)-c1cc2c(cc1C3=O)OCO2` gave a CL/F of 274 L/h/m² and 738 L/h/m² (beagle dog, female, plasma; oral, 1720 mg/m^2, gelatin capsule).
With `O=C(O)CN1CCCN2CCN(CC(=O)O)CCCN(CC1)Cc1cccc(n1)C2` the intact complex was 98% (64Cu complex in rat plasma; 12 h, 37 °C).
`OC[C@H]1O[C@@H](c2ccc(Cl)c(Cc3ccc(O[C@H]4CCOC4)cc3)c2)[C@H](O)[C@@H](O)[C@@H]1O` gave a Vdss/F of 86.1 ± 18.4 L (human, plasma; oral, steady state, EV treatment).
For `Cc1cc(NC2CCN(C(=O)OC3CCN(C(=O)/C=C/CN(C)C)C3)CC2)n2ncc(C(C)C)c2n1` (centres unmarked), “patients with Fatigue” read 2% (patients with advanced solid tumours; dose not given, QD arm, grade 3 or higher).
Under “urinary magnesium excretion change”, `Cc1ccc([C@@H]2O[C@H](CO)[C@@H](O)[C@H](O)[C@H]2O)cc1Cc1ccc(-c2ccc(F)cc2)s1` is recorded as -6.77 mg (Japanese type 2 diabetes patients; 200 mg, day 5, 24 h urine collection; relative to: baseline).
`CN(CCC(=O)O)C(=O)c1ccc2c(c1)CC[C@@H]1[C@@H]2CC[C@]2(C)C(c3cncc(F)c3)=CC[C@@H]12` gave a direct bilirubin of 0.26 mg/dL (premenopausal women with endometriosis pain, serum; 60 mg twice daily, end of treatment, completers, median).
For `Cn1cnc2c(F)c(Nc3ccc(Br)cc3Cl)c(C(=O)NOCCO)cc21`, “absorption rate constant” read 2.49 h⁻¹ (population PK model; human, plasma; oral, first-order absorption model, fasted).
The efflux ratio of `CC(C)Nc1ccnc(Nc2cccc(-c3cccnc3)c2)n1` is reported as 0.68 (MDCKII-WT cells; 10 µM, pH 7.4; relative to: Papp B-A over A-B).
Under “free plasma concentration”, `COc1cc2c(cc1OC)CN(CCc1ccc(NC(=O)c3cccc4c(=O)c5cccc(OC)c5[nH]c34)cc1)CC2` is recorded as 49 ng/mL (Sprague Dawley rats, plasma; iv infusion, 8.9 mg/h/kg, 4 h).
`OCc1nc2ccc(NCc3ccc(C(F)(F)F)cc3)cc2[nH]1` gave a tissue concentration of 21.8 ± 6 ng/g (Balb/c mouse, male, lungs; intravenous, 1 mg/kg, 6 h).
`Cc1ccc(Sc2ccccc2N2CCNCC2)c(C)c1` — result for “participants with TEAE”: 0% (item: Thirst; healthy adult men; oral, 40 mg single dose, 10 day).
With `FC(F)(F)c1cc(Nc2ncnc3ccc(-c4cccc(N5CCOCC5)c4)cc23)ccc1Cl` the CLint was 26 µL/min/mg (human liver microsomes).
For `CCN1/C(=C/C(C)=O)Sc2ccc(F)cc21`, “systolic blood pressure change” read 97.7 ± 3.8% (cynomolgus monkey; oral, 30 mg/kg, 24 h post-dose; relative to: pre-dose).
`Oc1ccc(/C=C/c2cc(O)cc(O)c2)cc1` has a sodium of 144 mEq/L and 145 mEq/L and 148 mEq/L (rat, azoxymethane-injected, blood at sacrifice; 100 mg/kg).
`Clc1cc(Cl)cc([C@H]2COC[C@@H](C3CCCCC3)N2)c1` gave a logD of > 4.7 (shake-flask, 1-octanol/buffer; pH 7.4).
`CNc1cc[n+](CCNC(=O)c2ccn3c(-c4c(C)noc4C)cnc3c2)cc1.[Cl-]`: “largest degradation product” “not detected” (0.1 M HCl; 1 weeks, pH 1, room temperature).
`CNCCOC12CC3(C)CC(C)(CC(Cn4ncc(-c5ccc(N6CCc7cccc(C(=O)Nc8nc9ccccc9s8)c7C6)nc5C(=O)O)c4C)(C3)C1)C2` — result for “heart rate change”: -1% (beagle dog, male, anaesthetised; intravenous bolus, 0.03 mg/kg, 150 min; relative to: baseline).
Under “subjects with drug-related TEAE”, `O=C(O)CCC(=O)O.[2H]C([2H])([2H])Oc1cc(C)c2[nH]ccc2c1CN1CC[C@@H](C2CC2)C[C@H]1c1ccc(C(=O)O)cc1` is recorded as 12.5% (healthy Chinese subjects; 50 mg twice daily, multiple ascending dose).
`C[C@H]1CNCCCN1S(=O)(=O)c1cccc2cncc(F)c12` — result for “subjects with eye irritation”: 0% (healthy adult men; ocular, 1 drop per eye twice daily, 8 days, adverse event).
`Fc1ccc([C@@H]2COC[C@H](c3ccc(-c4ccccc4)cc3)N2)cc1` has a logD of > 4.7 (shake-flask, 1-octanol/buffer; pH 7.4).
The QTcF increase of `Cc1cc(Nc2ccc(S(F)(F)(F)(F)F)cc2)n2nc(C(C)(F)F)nc2n1` is reported as ~10 ms (12-lead ECG and Holter; human, malaria patients; oral, dose not given, depends on dose and infection type).
For `O=C1NC(=O)C(c2ccccc2)(c2ccccc2)N1`, the trough level was 15 to 20 µg/mL (human, serum; 4 mg/kg every 8 h).
For `COc1ccccc1-n1nnnc1SCC(=O)Nc1ccccc1SC`, the logD was 3.14 (octanol/buffer; pH 7.4).
For `CN1CCCC1CCNS(=O)(=O)c1ccc2c(c1)CN(CC1CCCCC1)CC2` (centres unmarked), the Cmin was 0.148 ng/mL (wild-type mouse, plasma; oral in diet, 0.0002% in diet, 6 months).
`Cn1cncc1-c1c(F)cncc1NC(=O)c1c(N)nn2cc(F)cnc12`: “distribution rate constant k12” 0.11 h⁻¹ (two-compartment PK model; xenograft-bearing mice, plasma).
Under kidney weight, `CCCCCCCC(=O)c1c(OC)cc(OC)cc1C(=O)OC` is recorded as “decreased” (mouse; intraperitoneal, 10 mg/kg, together with: cyclophosphamide; relative to: cyclophosphamide alone).
`O=C(Nc1ccc(Cl)cc1)Nc1cc(Cl)c(Cl)cc1O`: “chromatographic hydrophobicity index” 150 (reverse phase LC, C18; acetonitrile gradient, 0.1% formic acid; converted from retention time; relative to: Valko CHI standards).
`C[C@@H](Oc1ccc(S(C)(=O)=O)cc1C(=O)N1C[C@@H]2C[C@]2(c2cc(C(F)(F)F)on2)C1)C(F)(F)F` has a %AUC extrapolated of 26.8% (healthy young humans, plasma; oral, 10 mg single dose).
The Tmax of `CCN1CCN(Cc2ccc(Nc3ncc(F)c(-c4cc(F)c5nc6n(c5c4)[C@H](C)CCC6)n3)nc2)CC1` is reported as 9.95 h (human, Phase Ib patients, plasma; 300 mg, single dose, median, together with: fulvestrant).
For `O=C1NCCc2nc(OCc3cccc(F)c3)ccc21`, “Irwin test score” read 0 (item: Vasodilatation; Sprague-Dawley rat male; oral, 100 mg/kg, 30 min; direction not given).
`O=C(/C=C/CN1CCCCC1)Nc1cc2c(Nc3ccc(F)c(Cl)c3)ncnc2cc1O`: “metabolite to parent Cmax ratio” 0 (human, plasma; oral, 30 mg dacomitinib).
`NC/C(=C\F)COc1cccc(Cn2c(=S)[nH]c(=O)c3[nH]cnc32)c1` has a tissue concentration of 735 ng/mL (C57BL/6J mice, liver; oral, 15 mg/kg single, 6 h).
`O=C(Nc1nc2cccc(-c3ccc(CN4CCS(=O)(=O)CC4)cc3)n2n1)C1CC1` — result for “treatment-emergent adverse events”: 0% (item: cystitis; human rheumatoid arthritis patients; oral, 30 mg once daily, 4 weeks, regardless of relatedness).
Under “enthalpy of phase change”, `C[Si](C)(C)O[Si](C)(C)O[Si](C)(C)C` is recorded as 9.44 kcal/mol (air/water; concentration not given).
For `CCO`, the flushing was 61.1% (human; treatment-emergent adverse event).
With `Cc1nc(N)sc1-c1ccnc(Nc2ccc(N(C)C)cc2)n1` the logD was 3.32 (octanol/buffer; 67 µM, pH 7.4).
`Cc1ccc([C@@H]2COC[C@H](c3ccc(C(C)(C)C)cc3)N2)cc1` has a logD of > 4.7 (shake-flask, 1-octanol/buffer; pH 7.4).
For `COc1cc2nccc(Oc3ccc(NC(=O)c4cc5c(n(-c6ccccc6)c4=O)CCCC5=O)nc3)c2cc1OC`, “patients with TEAEs” read 100% (human, relapsed/refractory AML; oral, dose not given, all dose groups combined).
The AUC(0-last) of `CCn1cc(C(=O)N2CCOCC2)c(=O)c2cc(NC3Cc4ccccc4C3)cnc21` is reported as 11000 ng·h/mL (human, fasted; oral tablet, 300 mg single dose, arithmetic mean).
`C[C@H]1CN(C(=O)CC#N)[C@]12CCN(c1ncnc3[nH]ccc13)C2` — result for “subjects with catheter site bruise”: 12.5% (healthy human; oral, 6 mg single).
The logD of `CNS(=O)(=O)Cc1ccc2[nH]cc(CCN(C)C)c2c1` is reported as 0.88 (octanol/buffer; 67 µM, pH 11).
For `CNC(=O)c1c(C)oc2cc(Oc3ncnc4cc(OC)c(OC)cc34)ccc12`, “absorption rate constant ka” read 2.29 h⁻¹ (population PK base model; human; oral).
`CNC(=O)c1ccc(-c2cnc3ncc(Cc4ccc5ncccc5c4)n3n2)cc1F`: “Headache dose reduction/interruption” 0% (Japanese patients; oral, 400 mg, grade 3/4).

A few entries again:
`O=C(/C=C/CN1CCCCC1)Nc1cc2c(Nc3ccc(F)c(Cl)c3)ncnc2cc1O`: “metabolite to parent Cmax ratio” 0 (human, plasma; oral, 30 mg dacomitinib).
`NC/C(=C\F)COc1cccc(Cn2c(=S)[nH]c(=O)c3[nH]cnc32)c1` has a tissue concentration of 735 ng/mL (C57BL/6J mice, liver; oral, 15 mg/kg single, 6 h).
`O=C(Nc1nc2cccc(-c3ccc(CN4CCS(=O)(=O)CC4)cc3)n2n1)C1CC1` — result for “treatment-emergent adverse events”: 0% (item: cystitis; human rheumatoid arthritis patients; oral, 30 mg once daily, 4 weeks, regardless of relatedness).
Under “enthalpy of phase change”, `C[Si](C)(C)O[Si](C)(C)O[Si](C)(C)C` is recorded as 9.44 kcal/mol (air/water; concentration not given).
For `CCO`, the flushing was 61.1% (human; treatment-emergent adverse event).
With `Cc1nc(N)sc1-c1ccnc(Nc2ccc(N(C)C)cc2)n1` the logD was 3.32 (octanol/buffer; 67 µM, pH 7.4).
